# Results gathered from unrelated publications.
# Each line is one published result; not all experiments were run side by side. Several values in a cell are separate wells, animals, samples, runs or records.
# Target: Homeodomain-interacting protein kinase 1 (HIPK1, Homo sapiens, UniProt Q86Z02)
SMILES,effect on,action,method,concentration,baseline,quantity,value
CC(C)=CC1OC(C)(C)C2C=C3C(=O)C(Cl)=CC(O)C3C3C(O)C4OC4C(=O)C132 (stereo not drawn),cell-free assay,,competition with immobilised ligand,10 µM,,remaining binding,65%
COc1ccc(O)cc1-c1c[nH]c2ncc(-c3cncc(C(=O)N(C)C)c3)cc12,binding,,competition with immobilised ligand,0.2 µM,,inhibition,-4.5%
C=CC(=O)Nc1cccc(-c2cnc3[nH]cc(C(=O)NC(C)(C)C)c3n2)c1,kinase activity,,,0.1 µM,,inhibition,44% and 47%
C=CC(=O)N1Cc2nc(-c3cc(-c4cc(Cl)cnc4Cl)c(F)cc3F)n(-c3ccncn3)c2C1,cell-free assay,inhibitor,,1 µM,,inhibition,2.9%
Nc1ncc2c(n1)-c1c([nH]c3ccc(C4=CCOCC4)cc13)CCC2,binding,,competition with immobilised ligand,1 µM,,remaining binding,41%
COc1cc(-n2cc3cc(F)cc(C(N)=O)c3n2)cc(Cl)c1C1CC(O)(CCO)Cc2ccccc21 (stereo not drawn),enzyme activity,inhibitor,,10 µM,,inhibition,0.46%
C=CC(=O)N1CCCC(n2c(=O)c3ncccc3n(Cc3ccc(Oc4ccccc4)cc3)c2=O)C1 (stereo not drawn),cell-free assay,,competition with immobilised ligand,1 µM,,remaining binding,88%
Cc1cccc(O[C@H]2CCC[C@@H](C(C)CNCc3ccncc3)C2)c1 (relative stereo),enzyme activity,inhibitor,,1 µM,,inhibition,-1%
CNC1C[S+]2CC[S+]3CC[S+](C1)[Ru-4]321([N]=C=S)[n]2c3ccc(OC)cc3c3c4c(c5cc(F)c[n+]1c5c32)C(=O)NC4=O (stereo not drawn),,,KinomeScan,0.1 µM,untreated,remaining binding,89%
O=C(Cc1ccc(OCc2ccccc2)cc1)NC1(C(=O)O)CCN(C(=O)c2ccc(-c3cccc(Cl)c3)cc2)CC1,enzyme activity,inhibitor,,10 µM,,activity vs control,92%
COc1c(OCCCN2CCOCC2)ccc2c1N=C(NC(=O)c1cnc(N)nc1)N1CCN=C21,kinase activity,inhibitor,,1 µM,untreated control,remaining activity,98%
CCN1CCN(Cc2ccc(C(=O)Nc3ccc(C)c(NCc4cnc5[nH]ccc5c4OC)c3)cc2C(F)(F)F)CC1,binding,,competition with immobilised ligand,1 µM,,remaining binding,62%
CNC(=O)C1CCN(c2cc(C)c(F)cc2NC(=O)c2ccc(-c3cc(O)ccc3C)c(C)c2)CC1,binding,,competition with immobilised ligand,1 µM,,remaining binding,100%
NC(=O)[C@@H](O)C[C@H]1CCc2sc3ncnc(O[C@H]4CC[C@H](N5CCOCC5)CC4)c3c21,enzyme activity,inhibitor,,10 µM,,inhibition,-1%
COc1cc(Nc2nc(C)cc(-c3cnn4nc(OC)ccc34)n2)cc(C(F)(F)F)c1,binding,,competition with immobilised ligand,1 µM,,remaining binding,70%

# Some of these lines once more:
SMILES,effect on,action,method,concentration,baseline,quantity,value
C=CC(=O)N1Cc2nc(-c3cc(-c4cc(Cl)cnc4Cl)c(F)cc3F)n(-c3ccncn3)c2C1,cell-free assay,inhibitor,,1 µM,,inhibition,2.9%
